Measured values gathered from unrelated publications.
Several values in a cell are separate wells, animals, samples, runs or records. ± gives the spread as reported.
PDGFRB: Platelet-derived growth factor receptor beta (PDGFRB, Homo sapiens, UniProt P09619)
CTSL: Procathepsin L (CTSL, Homo sapiens, UniProt P07711)
KCNN4: Intermediate conductance calcium-activated potassium channel protein 4 (KCNN4, Homo sapiens, UniProt O15554)
KDR: Vascular endothelial growth factor receptor 2 (KDR, Homo sapiens, UniProt P35968)
HDAC10: Polyamine deacetylase HDAC10 (HDAC10, Homo sapiens, UniProt Q969S8)

C[C@@H]1NC(=O)[C@H](CCCNC(=N)N)NC(=O)[C@H](CCCCN)NC(=O)[C@@H](Cc2ccccc2)NC(=O)[C@H](CC(=O)O)NC1=O  IC50 (Integrin alpha-V/beta-3 (Homo sapiens, UniProt P05106+P06756); ligand displacement): > 5000 nM
CCCCc1ccc(C(=O)N[C@@H](CO)C(=O)N[C@H](C(=O)N2CCC[C@H]2C(=O)N[C@@H](CC(N)=O)C(=O)NCC(=O)N[C@@H](CC(C)C)C(=O)O)[C@@H](C)OP(=O)(O)O)cc1  IC50 (Serine/threonine-protein kinase PLK3, polo-box domain (PLK3, Homo sapiens, UniProt Q9H4B4); polo-box domain binding, fluorescence polarization): > 600000 nM
C#Cc1cccc(Nc2ncnc3cc(OC)c(OCCCN4CCOCC4)cc23)c1  IC50 (PDGFRB; enzyme activity, inhibitor; 30 min, together with: ATP 80.8 µM): 1180 ± 113 nM
CC(C)CCN(Cc1ccccc1[N+](=O)[O-])c1nc(C#N)nc(N2CCOCC2)n1  IC50 (CTSL; enzyme activity, inhibitor, fluorescence): 96 nM
O=C(NCCC#Cc1cc(Nc2nccc(-c3ccn([C@H](CO)c4ccc(Cl)c(F)c4)c(=O)c3)n2)ccn1)OC1CC/C=C/CCC1 (some centres unmarked)  IC50 (MAPK1 (Homo sapiens, UniProt P28482); ATF2-GFP phosphorylation, inhibitor, TR-FRET): 8 nM
Oc1c(C(Nc2nc3ccccc3s2)c2ccccc2OCc2ccccc2)ccc2cccnc12 (centres unmarked)  IC50 (Genome polyprotein, NS2B-NS3 protease (Dengue virus type 2, UniProt P14340); enzyme activity, inhibitor; 0.1% CHAPS, together with: Bz-Nle-Lys-Arg-Arg-AMC substrate): 2340 ± 140 nM
C=CC(=O)N1CCc2ccc(-n3c(=O)ccc4cnc5ccc(-c6cnn(C)c6)cc5c43)cc21  IC50 (p38 MAP kinase; enzyme activity, inhibitor): > 10000 nM
O=C(O)[C@H](Cc1ccc2ccccc2c1)NC(=O)C1(c2ccc3ccccc3c2)CCN(S(=O)(=O)c2ccc([N+](=O)[O-])cc2)CC1  IC50 (Gag-Pol polyprotein, integrase (gag-pol, Human immunodeficiency virus 1, UniProt P12497); integrase catalytic activity, inhibitor, HTRF; HIV-1; together with: LEDGF/p75): 16000 nM and 17000 nM
COc1ccc(-c2c[nH]c3ccnc(Nc4ccc(Oc5ccnc6cc(OC)c(OC)cc56)c(F)c4)c3c2=O)cc1  IC50 (MET (Homo sapiens, UniProt P08581); kinase activity, inhibitor, HTRF): 1000 nM
COc1cc2nccc(Oc3ccc(NC(=S)NC4CC4)c(Cl)c3)c2cc1C(=O)NC1CC1  IC50 (PDGFRB): 210 nM
COc1ccc(-c2cc(C(F)(F)F)nc(S(=O)(=O)NCC(=O)Nc3ccc(C)cc3)n2)cc1  IC50 (WRN (Homo sapiens, UniProt Q14191); DNA unwinding, inhibitor, TAMRA dequenching; 10 nM full-length enzyme, 5 µM trap DNA, together with: 500 nM DNA substrate, 60 µM ATP): 385 nM
Cn1c(=O)c(=O)n(C)c2cc(S(=O)(=O)Nc3ccc(S(=O)(=O)Nc4ncccn4)cc3)ccc21  IC50 (Dipeptidyl peptidase 8 (Homo sapiens, UniProt Q6V1X1); enzyme activity, inhibitor, fluorescence): > 100000 nM
O=C(O)CCC(=O)NNC(=O)c1ccncc1  IC50 (Egl nine homolog 1 (EGLN1, Homo sapiens, UniProt Q9GZT9); inhibitor, AlphaScreen; bimodal curve, rough estimate, together with: 2 µM 2-oxoglutarate): > 300000 nM
COC(=O)C1=CNC=C(C(=O)OC)C1c1ccc(F)c(C(F)(F)F)c1  IC50 (KCNN4; ion current, inside-out patch clamp; 140 mM K+, together with: 1 µM free Ca2+): < 20 nM
COCCOCCOc1cc2nccc(Oc3ccc(NC(=O)NC4CC4)c(Cl)c3)c2cc1C(N)=O  IC50 (PDGFRB; enzyme activity, inhibitor): > 100 nM
CC(C)CCn1c(OC2CCN(C(=O)C3CC3)CC2)nc2c1c(=O)n(C)c(=O)n2C  IC50 (HSD17B4 (Homo sapiens, UniProt P51659)): > 57000 nM
COc1cc2nccc(Oc3ccc(NC(=S)N4CCC(F)(F)CC4)c(Cl)c3)c2cc1C(N)=O  IC50 (PDGFRB): 324 nM
NC1CCCc2c1[nH]c1ccc(Cl)cc21 (racemic)  IC50 (Metal cation symporter ZIP14, CD2 (Homo sapiens, UniProt Q15043); transporter uptake, inhibitor, fluorescence): 10600 nM
COc1cc(Oc2ccnc3cc(OC)c(C(N)=O)cc23)ccc1NC(=S)NC1CC1  IC50 (KDR): 231 nM
N=C(N)NCCCC(N)C(=O)NCC(=O)NC(CCCNC(=N)NCCCSCC1OC(n2cnc3c(N)ncnc32)C(O)C1O)C(N)=O (centres unmarked)  IC50 (PRMT7 (Homo sapiens, UniProt Q9NVM4); enzyme activity, inhibitor): 831 nM
N#Cc1ccc(C2Sc3ccccc3NC3=C2C(=O)c2ccccc23)cc1 (racemic)  IC50 (Type II NADH dehydrogenase (Plasmodium falciparum, UniProt Q8I302); enzyme activity, inhibitor, fluorescence NAD+ quantitation; recombinant enzyme): > 20000 nM
CCOc1cccc(Nc2nc(N)c(C(=O)c3ccc(OC)cc3)s2)c1  IC50 (GSK3 (Trypanosoma brucei, UniProt Q388M1); enzyme activity, inhibitor, radiometric): 40 nM
CC=CC(CC(=O)O)c1ccc(OCc2ccc(-c3cc(OC)ccc3F)cc2)cc1 (centres unmarked)  IC50 (FFAR1 (Homo sapiens, UniProt O14842); binding, SPA; CHO-K1 membranes; together with: [3H]AM-1638): 6.31 nM
Oc1cc2c(cc1O)C(c1ccccc1)CNCC2 (racemic)  IC50 (Carbamate kinase (Giardia intestinalis, UniProt A8BB85); enzyme activity, inhibitor, coupled absorbance): 1790 nM
CN1CCN(C(=O)N(CCCCCCC(=O)NO)c2ccc(-c3ccc4cnn(C)c4c3)cc2)CC1  IC50 (HDAC10; enzyme activity, inhibitor, fluorescence): 1.14 nM
O=C(Nc1ccc(-c2nnc(-c3ccco3)o2)cc1)c1ccco1  IC50 (Nucleoside transporter 1 (Plasmodium vivax, UniProt A5K8B0); yeast growth; purine auxotrophic yeast expressing target; 15 to 17 h, together with: adenosine 1 mM): 1170 ± 188 nM
O=c1[nH]c(=S)[nH]c2c1C(c1cc(/N=N/c3cc(Cl)cc(Cl)c3)ccc1O)c1c([nH]c(=S)[nH]c1=O)N2  IC50 (PTGS2 (Ovis aries, UniProt P79208); enzyme activity, inhibitor, ELISA): 2110 nM
COc1cc2nccc(Oc3cc(F)c(NC(=S)NC4CC4)c(F)c3)c2cc1C(N)=O  IC50 (KDR): 64 nM
CC(C)CCN(Cc1ccccc1C#N)c1nc(C#N)nc(N2CCOCC2)n1  IC50 (CTSL; enzyme activity, inhibitor, fluorescence): 56 nM
O=c1c2ccccc2sn1-c1ccccc1  IC50 (HDAC10; enzyme activity, inhibitor): > 10000 nM
Cc1cc(NC(c2ccccc2)(c2ccccc2)c2ccccc2Cl)no1  IC50 (KCNN4; ion current, inhibitor, patch clamp): 1000 nM
NC1CCC(Nc2nccc(-c3cccnc3Oc3ccc(NS(=O)(=O)c4ccccc4Cl)c(F)c3)n2)CC1 (centres unmarked)  IC50 (Serine/threonine-protein kinase/endoribonuclease IRE2, RNase domain (ERN2, Homo sapiens, UniProt Q76MJ5); RNase activity, inhibitor; together with: XBP1 mini-substrate): 4.4 ± 0.7 nM
CCOC(=O)c1nc2cc(Cl)c(Cl)cc2nc1N1CCN(C(=O)Nc2ccc(N3CCNCC3)cc2)CC1  IC50 (PGK1 (Homo sapiens, UniProt P00558); enzyme activity, inhibitor, GAPDH-coupled NADH; together with: 1.5 mM ATP and 2 mM 3-PG): 160 ± 10 nM
COc1cc2nccc(Oc3ccc(NC(=S)NC4CC=C(F)CC4)c(Cl)c3)c2cc1C(N)=O (centres unmarked)  IC50 (KDR): 1100 nM
COCC1CN(C2CCN(c3cc(OC)c(Nc4ncc(Br)c(Nc5ccc6c(c5P(C)(C)=O)OCCO6)n4)cc3C)CC2)C1  IC50 (EGFR (Homo sapiens, UniProt P00533, C797S/L858R); enzyme activity, inhibitor, TR-FRET): < 1.5 nM
